Experimental data collected from several papers.
Several values in a cell are separate wells, animals, samples, runs or records. ± marks the error that the study gave.
Genome polyprotein NS2B-NS3 protease: Genome polyprotein, NS2B-NS3 protease (dengue virus type 2, UniProt P29990)

`C=CC(=O)Nc1cc(Nc2nccc(-c3cn(C)c4ccccc34)n2)c(OCC(F)(F)F)nc1N(C)CCNC` — result for “contribution to metabolite formation”: 0.444% (Cytochrome P450 3A5 (CYP3A5, Homo sapiens, UniProt P20815); substrate; 3 µM, 60 min, 3A5 isoform, liver abundance-normalized).
The Kd of `C=CC(=O)N1CC2(CCN(c3nc(OC4CCN(CCCOC)CC4)nc4c(OCC(F)(F)F)c(-c5c(C)ccc6[nH]ncc56)c(C5CC5)cc34)CC2)C1` is reported as 1.11 ± 0.23 µM (GTPase KRas, GDP-bound (KRAS, Homo sapiens, UniProt P01116, G13D); SPR).
Under “mean revertant colonies”, `O=C1C2CC3CC1CC(C(=O)N1CCN(c4ccc([N+](=O)[O-])c5ncccc45)CC1)(C3)C2` is recorded as 7 colonies/well (Salmonella typhimurium; Ames test; TA98; 0.13 µg/well, with S9).
With `O=C1NC2(CC2)COc2ncc(F)cc2[C@H]2COCCN2c2ccn3ncc1c3n2` the revertant colonies was 98 ± 15 revertants/plate (Salmonella typhimurium; Ames test; TA97a; 150 µg/plate, 48 h, together with: rat liver S9).
`CC(C)Cc1ccc(C(C)C(=O)N[C@@H](CCCCNC(=O)CCOCCOCCOCCOCCOCCOCCNC(=O)CN2CCN(CC(=O)[O-])CCN(CC(=O)[O-])CCN(CC(=O)[O-])CC2)C(=O)Nc2cccc3c(C(=O)NCC(=O)N4CC(F)(F)C[C@H]4C#N)ccnc23)cc1.[177Lu+3]` (some centres unmarked) has a tracer uptake of 0.15 %ID/g (U-87 MG tumour model; host not given, blood; 48 h, tumour-bearing).
`CC(C)C[C@H](NC(=O)[C@H](Cc1ccc(O)cc1)NC(=O)[C@@H](CCCNC(=N)N)NC(=O)[C@@H](CO)NC(=O)[C@H](Cc1ccccc1)NC(=O)[C@H](CC1CCCCC1)NC(=O)[C@H](CC(=O)O)NC(=O)CN1CCN(CC(=O)O)CCN(CC(=O)O)CCN(CC(=O)O)CC1)C(=O)N[C@@H](Cc1c[nH]c2ccccc12)C(=O)N[C@@H](CO)C(=O)O` [copper-64 labelled] has an activity concentration of 837 Bq/mL and 1080 Bq/mL and 766 Bq/mL and 737 Bq/mL and 937 Bq/mL and 618 Bq/mL (human, adrenal; concentration not given, 24 h).
`Cc1ncsc1-c1ccc(C(C)NC(=O)C2CC(O)CN2C(=O)C(NC(=O)CCCCCCCCCCN2CCCC(Nc3ncc(Cl)c(Nc4ccccc4S(=O)(=O)C(C)C)n3)C2)C(C)(C)C)cc1` (centres unmarked) — result for “log2 fold change”: -1.37 (22Rv1; RNA-seq, measured: PTGFR mRNA; concentration not given; relative to: DMSO).
With `N#C[C@@H]1CCCN1C(=O)CNC(=O)c1ccnc2ccc(OCCCN3CCN(C(=O)CCc4ccc(O)c(CN5CCN6CC(=O)[O][Al-]([18F])([O]C(=O)C5)[O]c5ccc(CCC(=O)N7CCN(CCCOc8ccc9nccc(C(=O)NCC(=O)N%10CCC[C@H]%10C#N)c9c8)CC7)cc5C6)c4)CC3)cc12` (some centres unmarked) the tracer uptake was 2.88 %ID/g (U-87 MG tumour model; host not given, stomach; 2 h, tumour-bearing).
`CC(C)OCCOCc1ccc(OCC(O)CN(N=O)C(C)C)cc1` (centres unmarked) — result for “revertant fold increase”: 0.9 fold (Salmonella typhimurium; Ames test; TA98; 5 µg/plate, 30 % rat S9; relative to: solvent control).
With `N#C[C@@H]1CC(F)(F)CN1C(=O)CNC(=O)c1ccnc2c(NC(=O)CCOCCOCCOCCOCCOCCOCCNC(=O)[C@H](CCCCNC(=O)CN3CCN(CC(=O)[O-])CCN(CC(=O)[O-])CCN(CC(=O)[O-])CC3)NC(=O)CCCc3ccc(I)cc3)cccc12.[177Lu+3]` the tracer uptake was 4.99 %ID/g (U-87 MG tumour model; host not given, blood; 1 h, tumour-bearing).
`COc1cccc(OC)c1-c1cc(C(=O)NC2(C(=O)O)C3CC4CC(C3)CC2C4)nn1-c1ccc(C(=O)N(C)CCOCCN(C)C(=O)[C@H](CCCCNC(=O)[C@H](CC(C)C)NC(=O)C2OC2C(=O)O)NC(=O)CN2CCN(CC(=O)[O-])CCN(CC(=O)[O-])CCN(CC(=O)[O-])CC2)cc1C(C)C.[177Lu+3]` (mixture of isomers) gave a tracer uptake of 0.8 %ID/g (HT-29 tumour model; host not given, blood; 7 days, tumour-bearing).
`CN1CCCNC(=O)c2cccc(c2)C(=O)NCCCN(C)CCCNc2cccc3c2C(=O)c2cccc(c2C3=O)NCCC1` gave a viability of 12.9% (SAS; cell growth or viability, CCK-8; 5 µM, 48 h).
With `Nc1nc2cc(C(=O)c3ccc(F)cc3)ccc2[nH]1` the revertants was 18 revertants per plate (Salmonella typhimurium; Ames preincubation test; TA98; 312.5 µg per plate, 3 days, without S9).
`O=C(CN1CN(c2ccccc2)C2(CCN(C(=O)c3cc4cn[nH]c4cn3)CC2)C1=O)NCC(F)(F)F` gave an IC50 of greater than 50 µM (Cytochrome P450 3A4 (CYP3A4, Homo sapiens, UniProt P08684); enzyme activity, inhibitor).
`COc1cccc(OC)c1-c1cc(C(=O)NC2(C(=O)O)C3CC4CC(C3)CC2C4)nn1-c1ccc(C(=O)N(C)CCCN(C)CCCN(C)C(=O)[C@H](CCCCNC(=O)[C@H](CC(C)C)NC(=O)C2OC2C(=O)O)NC(=O)CN2CCN(CC(=O)[O-])CCN(CC(=O)[O-])CCN(CC(=O)[O-])CC2)cc1C(C)C.[177Lu+3]` (mixture of isomers) gave a tracer uptake of 0.69 %ID/g (HT-29 tumour model; host not given, pancreas; 4 h, tumour-bearing).
With `Cc1cccc2c1N(C(=O)n1ccnn1)CC2` the Kd was 26.3 µM (KAI2 (Arabidopsis thaliana, UniProt Q9SZU7, L218I); ITC; L218I mutant, mean).
The tracer uptake of `N#C[C@@H]1CC(F)(F)CN1C(=O)CNC(=O)c1ccnc2c(NC(=O)[C@@H](N)CCCCNC(=O)CCOCCOCCOCCOCCOCCOCCNC(=O)CN3CCN(CC(=O)[O-])CCN(CC(=O)[O-])CCN(CC(=O)[O-])CC3)cccc12.[177Lu+3]` is reported as 0.53 %ID/g (U-87 MG tumour model; host not given, blood; 1 h, tumour-bearing).
`CNS(=O)(=O)Nc1nccc(Cc2c(C)c3ccc(Oc4ncccc4F)cc3oc2=O)c1F` gave an IC50 of 0.00365 µM (CMK-86; cell viability; 7 days).
For `CCN(CC)CC#CCNc1ccnc2cc(Cl)ccc12`, the revertants was 1 revertants/well (Salmonella typhimurium; mini-Ames test; TA1535; 1000.0 µg/well, with rat liver S9).
`COc1cccc(OC)c1-c1cc(C(=O)NC2(C(=O)O)C3CC4CC(C3)CC2C4)nn1-c1ccc(C(=O)NCCNC(=O)[C@H](CCCCNC(=O)[C@H](CC(C)C)NC(=O)C2OC2C(=O)O)NC(=O)CN2CCN(CC(=O)[O-])CCN(CC(=O)[O-])CCN(CC(=O)[O-])CC2)cc1C(C)C.[177Lu+3]` (mixture of isomers) gave a tracer uptake of 0.1 %ID/g (HT-29 tumour model; host not given, stomach; 7 days, tumour-bearing).
`C=CC(=O)Nc1cccc(Cn2ncc3cnc(Nc4cnn(CCOC)c4)nc32)c1` — result for “percent of control”: 1.6% (BLK human; binding, KINOMEscan; 100 nM; lower = stronger binding).
`C=C(NC(=O)c1csc(-c2nc3c(cc2O)-c2nc(cs2)C(=O)NC(C(C)O)C(=O)NC(=C(C)OC)c2nc(cs2)C(=O)NC2c4nc(cs4)C(=O)NC(COC(=O)c4c5c6c(cccc6n4O)COC(=O)C(OC4CC(C)(O)C(N(C)C)C(C)O4)C2OC5)c2nc-3cs2)n1)C(N)=O` (centres unmarked) gave an AUC(0-t) of 3.36 µM·h (ICR mice, Streptococcus pneumoniae ATCC 49169 infected, immunocompromised, blood; intravenous, 32 mg/kg once daily).
For `C1=Cc2ccccc2N(Cc2cc(-c3ccc(OCc4ccccc4)cc3)no2)c2ccccc21`, the IC50 was greater than 30 µM (BJ; cytotoxicity).
The body weight of `CC(C)(C)NCC(SS(=O)(=O)O)c1ccccc1` (centres unmarked) is reported as 33.8 g and 31.2 g and 30.7 g and 34.2 g (Schistosoma mansoni; perfusion day 44; infected Swiss Webster mice; 600 mg/kg single dose, dosed day 15 post-infection).
`COC1CN([C@H]2CC[C@H]([C@@]3(C)Oc4c(Cl)cc(C(=O)NCc5c(SC)cc(C)[nH]c5=O)c(C)c4O3)CC2)C1` — result for “log2 fold change”: 1.02 (RNA-seq, measured: CDKL1; human, whole blood; dose not given, 24 h; relative to: pretreatment baseline).
`N#C[C@@H]1CCCN1C(=O)CNC(=O)c1ccnc2ccc(OCCCN3CCN(C(=O)CCc4ccc5c(c4)CN4CCN(Cc6cc(CCC(=O)O)ccc6O)CC(=O)[O][Al-]([18F])([O]C(=O)C4)[O]5)CC3)cc12` (some centres unmarked) has a tracer uptake of 1.34 %ID/g (U-87 MG tumour model; host not given, pancreas; 2 h, tumour-bearing).
`N#C[C@@H]1CC(F)(F)CN1C(=O)CNC(=O)c1ccnc2c(NC(=O)[C@H](CCCCNC(=O)CCOCCOCCOCCOCCOCCOCCNC(=O)CN3CCN(CC(=O)[O-])CCN(CC(=O)[O-])CCN(CC(=O)[O-])CC3)NC(=O)CCCc3ccc(I)cc3)cccc12.[177Lu+3]` gave a tracer uptake of 1.27 %ID/g (U-87 MG tumour model; host not given, liver; 48 h, tumour-bearing).
The EC50 of `O=C(NCc1ccncc1)c1cc(-c2ccccc2)n(-c2ccccc2)n1` is reported as 34 µM (Genome polyprotein NS2B-NS3 protease; reporter gene; HeLa).
Under “relative mitotic index”, `Cc1nc2cccc(OCC(C)(C)C(=O)NC(C)C)c2c(N)c1C(=O)[O-].[Na+]` is recorded as 79% (human peripheral blood lymphocytes; 250 g/mL, 3 h, without S9).
For `N#Cc1cc(NC(=O)c2cc(-c3ccccc3)n(-c3ccccc3)n2)ccc1N1CCCC1`, the EC50 was 29 µM (Genome polyprotein NS2B-NS3 protease; reporter gene; HeLa).
The dextrorphan formation of `CNC(=O)C1CCCN(C(=O)C2CC3CCC2N3C(=O)[C@@H]2C[C@@H](O)CN2C(=O)NCc2cccc(Cl)c2F)C1` (mixture of isomers) is reported as 106 ng/mL (Cytochrome P450 2D6 (CYP2D6, Homo sapiens, UniProt P10635); enzyme activity, inhibitor, time-dependent inhibition; 0.206 µM, preincubated with NADPH).
The SUV of `O=C(Nc1cnccc1-c1ccc([18F])nc1)c1ccnc(NC(=O)C2CC2)c1` is reported as 0.28 ± 0.16 (FVB/NJ mouse, both sexes, brain; intravenous, 2 min post-injection, together with: P-gp inhibitor tariquidar 15 mg/kg iv).

Some of these lines once more:
With `N#C[C@@H]1CCCN1C(=O)CNC(=O)c1ccnc2ccc(OCCCN3CCN(C(=O)CCc4ccc(O)c(CN5CCN6CC(=O)[O][Al-]([18F])([O]C(=O)C5)[O]c5ccc(CCC(=O)N7CCN(CCCOc8ccc9nccc(C(=O)NCC(=O)N%10CCC[C@H]%10C#N)c9c8)CC7)cc5C6)c4)CC3)cc12` (some centres unmarked) the tracer uptake was 2.88 %ID/g (U-87 MG tumour model; host not given, stomach; 2 h, tumour-bearing).
`Cc1ncsc1-c1ccc(C(C)NC(=O)C2CC(O)CN2C(=O)C(NC(=O)CCCCCCCCCCN2CCCC(Nc3ncc(Cl)c(Nc4ccccc4S(=O)(=O)C(C)C)n3)C2)C(C)(C)C)cc1` (centres unmarked) — result for “log2 fold change”: -1.37 (22Rv1; RNA-seq, measured: PTGFR mRNA; concentration not given; relative to: DMSO).
`CN1CCCNC(=O)c2cccc(c2)C(=O)NCCCN(C)CCCNc2cccc3c2C(=O)c2cccc(c2C3=O)NCCC1` gave a viability of 12.9% (SAS; cell growth or viability, CCK-8; 5 µM, 48 h).
